Measured values collected from several papers.
Each line is one published result; not all experiments were run side by side. ± marks the error that the study gave.

SMILES	target or system	assay	test system	setting	measurement	result
COc1cc(C(=O)NCCOCCOCCOCCNC(=O)c2ccc([18F])nc2)ccc1NC(=O)C1NC(CC(C)(C)C)C(C#N)(c2ccc(Cl)cc2F)C1c1cccc(Cl)c1F (stereo not drawn)	HepG2 tumour model	–	host not given, bone	4 h, tumour-bearing	tracer uptake	0.65 %ID/g
COc1cc2ccnc(Cc3ccc(O[11CH3])c(OC)c3)c2cc1OC	–	–	Sprague-Dawley rats, muscle	intravenous, 0.5 h	tissue uptake	0.071 ± 0.009 %ID/g
CCNc1cc2[o+]c3cc(NCC)c(C)cc3c(-c3ccccc3C(=O)OCCOCC[18F])c2cc1C	–	–	rat, gut	30 min	tissue uptake	1.39 ± 0.78 %ID/g
N=C(N)NCc1ccc(C(=O)NCCCC[C@H](NC(=O)N[C@@H](CCC(=O)O)C(=O)O)C(=O)O)cc1[131I]	–	–	SCID mouse, PC-3 xenografts, thyroid	2 h	tissue uptake	0.22 ± 0.05 %ID/g
O=C(c1ccc(F)cc1)C1CCN(C2Cc3c(cccc3OCC[18F])CC2O)CC1 (single isomer, unassigned; (-))	–	–	Sprague-Dawley rat, male, blood	intravenous, dose not given, 120 min	tissue uptake	0.356 ± 0.019 %ID/g
CN(C)CC1CCCCC1(O)c1cccc(O)c1 (stereo not drawn)	Caco-2	–	–	concentration not given, 3 h, pH 7.4, basolateral-to-apical, with: cyclosporine A 10 µM	efflux increase	≤ 14%
C=Cc1cc(O)cc2nc(-c3ccc(O)c([76Br])c3)oc12	–	–	female C57BL/6 mouse, ovaries	1 h, low dose	tissue uptake	0.35 ± 0.03 %ID/g
CN[C@](C)(C[18F])C(=O)O	–	–	SCID mouse DU-145 xenograft, brain	120 min, post injection	tissue uptake	0.2 ± 0.04 %ID/g
COc1ccc(CNc2nc(N3CCC[C@H]3CO)ncc2C(=O)NN)cc1Cl	Salmonella typhimurium	–	TA100	500 µg/plate, 48 h	revertant count	124 ± 12
N=C(N)NCc1ccc(C(=O)NCCCC[C@H](NC(=O)CCCCCCC(=O)NCCCC[C@H](NC(=O)N[C@@H](CCC(=O)O)C(=O)O)C(=O)O)C(=O)O)cc1[211At]	–	–	SCID mouse, PC-3 xenografts, thyroid	21 h	tissue uptake	3.74 ± 1.42 %ID/g
CCC(=O)N(C)c1ccc(Cl)c(Cl)c1	Salmonella typhimurium	Ames test	TA1537	1.00 mg/plate, with rat liver S9	revertants	3 ± 1.5 revertants/plate
CC[C@H](C)C(=O)N1CCC(NC(=O)Nc2ccc(OC(F)(F)F)c(F)c2)CC1	–	–	human, plasma	oral, 2 mg, single dose, healthy volunteers	AUC(0-t)	258 ng·h/mL
O=C(O)CC[C@H](NC(=O)O[C@@H](CCCCNC(=O)c1ccc([18F])cc1)C(=O)O)C(=O)O	–	–	mouse, PC-3 PIP/flu xenografts, bone	90 min	tissue uptake	0.79 ± 0.16 %ID/g
N=C(N)NCc1ccc(C(=O)NCCCC[C@H](NC(=O)N[C@@H](CCC(=O)O)C(=O)O)C(=O)O)cc1[211At]	–	–	SCID mouse, PC-3 xenografts, blood	14 h	tissue uptake	0.16 ± 0.04 %ID/g
COc1cc2ncnc(Oc3cccc(N[11C](=O)Nc4cc(C(C)(C)C(F)(F)F)on4)c3)c2cc1OC	–	–	Balb/c nude mouse, female, A375 melanoma xenograft, lung	6.6 MBq, 60 min	tissue uptake	5.16 ± 0.34 %ID/g

Some of these lines once more:
SMILES	target or system	assay	test system	setting	measurement	result
COc1cc2ccnc(Cc3ccc(O[11CH3])c(OC)c3)c2cc1OC	–	–	Sprague-Dawley rats, muscle	intravenous, 0.5 h	tissue uptake	0.071 ± 0.009 %ID/g
CCNc1cc2[o+]c3cc(NCC)c(C)cc3c(-c3ccccc3C(=O)OCCOCC[18F])c2cc1C	–	–	rat, gut	30 min	tissue uptake	1.39 ± 0.78 %ID/g
